Assay results collected from several papers.
Every numbered part comes from another study and shows a few of its results, in no order. Changes are numbered by the printed parent chain.

Block 1
Target: CCNB2, cyclin fold, Cln2 fusion (human)
Method: yeast growth competition, sequencing
Matrix: yeast
Notes: strong parent motif
Reference: not given
Direction: higher = stronger binding
Starting sequence: E2F1 docking peptide (human); PPVKRRLDFETDH
| Variant | normalised enrichment score |
| --- | --- |
| D8A | 1.89 |
| L7H | 0.0574 |
| T11R | 3.16 |
| D8F | 3.11 |
| P2H | 2.71 |
| E10L | 2.29 |
| F9W | 0.891 |
| T11V | 3.38 |
| K4W | 0.472 |
| L7W | 0.542 |
| D8K | 1.92 |
| R5I | 1.86 |
| E10Y | 3 |
| D12S | 3.21 |

Block 2
Target: UBE2Q2 UBC core domain (UniProt Q8WVN8)
Sequence of UniProt Q8WVN8 (whole entry, looked up): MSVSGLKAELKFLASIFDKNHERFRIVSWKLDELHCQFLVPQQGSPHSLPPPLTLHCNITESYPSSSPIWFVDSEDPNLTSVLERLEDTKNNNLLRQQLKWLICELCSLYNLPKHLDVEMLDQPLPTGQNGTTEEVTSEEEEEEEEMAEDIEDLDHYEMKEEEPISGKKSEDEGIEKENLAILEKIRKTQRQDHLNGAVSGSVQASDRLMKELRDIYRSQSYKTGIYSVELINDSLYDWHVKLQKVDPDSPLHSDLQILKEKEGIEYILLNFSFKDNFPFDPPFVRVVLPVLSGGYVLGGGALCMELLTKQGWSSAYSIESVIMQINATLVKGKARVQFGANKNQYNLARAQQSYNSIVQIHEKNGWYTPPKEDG
Method: yeast two-hybrid
Matrix: yeast
Notes: mostly zero background
Reference: not given
Direction: higher = stronger interaction
B1: RMND5B RING domain (UniProt Q96G75); chain MKCWYHSVFACPILRQQTSDSNPPIKLICGHVISRDALNKLINGGKLKCPYCPMEQNPADGK
B2: CBLL1 RING domain (UniProt Q75N03); chain GEKDDTPVHFCDKCGLPIKIYGRMIPCKHVFCYDCAILHEKKGDKMCPGCSDPVQRIEQCT
B3: TRIM74 RING domain (UniProt Q86UV6); chain SLLELEDWLQCPICLEVFKESLMLQCGHSYCKGCLVSLSYHLDTKVRCPMCWQVVDGSSSLP
B4: UBE4B RING domain (UniProt O95155); chain KNARAEIDYSDAPDEFRDPLMDTLMTDPVRLPSGTIMDRSIILRHLLNSPTDPFNRQTLTESMLEPVPELKEQIQAWMREKQNSDH
B5: RNF10 RING domain (UniProt Q8N5U6); chain VRICSHEVPSCPICLYPPTAAKITRCGHIFCWACILHYLSLSEKTWSKCPICYSSVHKKDLKS
B6: TRIM2 RING domain (UniProt Q9C040); chain VRQIDKQFLICSICLERYKNPKVLPCLHTFCERCLQNYIPAHSLTLSCPVCRQTSILPEKGV
| Molecule | lacZ reporter activity |
| --- | --- |
| B1 (RMND5B RING domain) | 0 |
| B2 (CBLL1 RING domain) | 0 |
| B3 (TRIM74 RING domain) | 0 |
| B4 (UBE4B RING domain) | 0 |
| B5 (RNF10 RING domain) | 0 |
| GSEEEEIPFRCFICRQAFQNPVVTKCRHYFCESCALEHFRATPRCYICDQPTGGIFNPA (RNF113B RING domain (UniProt Q8IZP6)) | 0 |
| PLRRLQEEKLCKICMDRHIAVVFIPCGHLVTCKQCAEAVDRCPMCSAVIDFKQRVF (BIRC8 RING domain (UniProt Q96P09)) | 0 |
| B6 (TRIM2 RING domain) | 0 |

Block 3
Target: RNA binding protein fox-1 homolog 2, RRM domain, GST-SBP tag (RBFOX2, Homo sapiens, UniProt O43251-10, residues 100-194)
Method: RNA Bind-n-Seq
Molecule type: RNA
Matrix: in vitro
Concentration: 365 nM
Notes: natural RNA segment, single round, ends assumed
Reference: no-protein control
Direction: higher = stronger binding
All sequences stand within: GGGAGUUCUACAGUCCGACGAUC … UGGAAUUCUCGGGUGCCAA
Construct (chain): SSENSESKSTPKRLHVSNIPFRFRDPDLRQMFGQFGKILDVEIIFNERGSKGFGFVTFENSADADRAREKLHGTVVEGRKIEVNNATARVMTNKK
| Sequence | RBNS enrichment (R) |
| --- | --- |
| UGUGCCAUACCAGCUGAUCUGUAGGCCUUUUCUAUGAGUCCUACUCCAUCAGGGUUUCUGCUGUUAGAAACAGGCCAAUUAUCUGCCAGGUGAAGGAAGGCAUCCCUUGU | 0.243 |
| CCUCAGCGGCCGCCCCGGCUGUGCCCUUCCCUGCUCUCCCGCUCUCUCAGGCCUCGGAAGGAAGAUCGGUGGCUGCGAGCUGAACUAAGGAGUAGGGCCUGUGGCUCAGC | 0.308 |
| UUUUUUGCUCCCAACUUCCUGACACUAGAUGAGUCAGCAGACAUGAGUCCUGACUUCCAAGAGAUUUUAGAAUCUAAGCUGGAUAGUACAGACAGGUAUAAAAGAUGGAU | 0.319 |
| CUUUUCCAACUUUCGCCUCCGCUAGGAGAUCAGAAAGAAUUCUUGUGACUUCCUGGGCAGCCAUUGAAUUCAUUUUCCAUGAGAAGAUGACAGAGUUAGCCUGUGGCUAU | 0.295 |
| GUUUUUAAGUGUUUGCCUGUGGCUACUUCCGUUCUAUAGCUCAAGAAUAUGCCAUUACAUCAUAGUCAAGGGGUUGCUAUGAGAACUGUAGUAGAGAAUACCACUGUGAG | 2.92 |
| CCCAGGGUGGCGGUGGUGGCAGCAGUGAUCCUCUGAACCUGCAGAGGCCCCCUCCCCGAGCCUGGCCUGGCUCUGGCCCGGUCCUAAGCUGGACUCCUCCUACACAAUUU | 0.251 |
| ACACUACUGCACCGCACCGCACCCAGAAAGAACUUUCUCCCCAGCGGUGACGACUGCUCCAUGGGGAAGCUAAAAUAUCCUCGCCAGUUCCGGAGCACCCUUGUGAAGAA | 1.95 |
| UUAUAUGAAGUUGCAUUAUUGUGGACUUGGCUGUCUUGUGAUGAAUUUUUUUCAUAUGUAUUCUGUGCCAUACUAUUGUUAAAAUGAACUGUUGCUAUUGUGAGAUGGAU | 1.18 |
| CUCCCUCUCAGGAAGCCCAGUUUCAUCCUUAGUACCCCCCCUCGUGCCCGCUGUCGGCUGGUUAUAGCACUUCCACUGCUACUGUCAGAUAGGAAGUGAUCGAAGCAGGG | 0.339 |
| GAGCUUGCAGUGAGCCGAGAUUGUGCCACUGCACUCCAGCCUGGGCAACAGAGCUAGACUCUGUGUCAAAAAUAAAUGACUAGAUAAAAAAAAAAAUUGUUUGAGUACAU | 0.948 |
| ACAGUGGUGGGUGGGGAGGCGAUAGGAAACACAUUCCCCAGUGUGCAUUUAACAUUCAUAGCCUACAACCACAGACGUGUCUGGGGGAGCCUGGCAAGGCGUUCCUCGUC | 0.402 |
| UGUAUUAUUUAUUCAUUCACUGUUUUCUAGUGUUUCUGUGUUUAUUACUGUUCAGCAUCAUCUUGGUUAUAUACUGAAAAUCAAACACUUUACUACAGUUGUGAAUUAGU | 0.381 |

Block 4
Target: RING finger protein unkempt homolog, zinc fingers 1-6, GST-SBP tag (UNK, Homo sapiens, UniProt Q9C0B0, residues 30-357)
Method: RNA Bind-n-Seq
Molecule type: RNA
Matrix: in vitro
Concentration: not given
Notes: RNA with constant flanks, human-mouse chimeric sites, ends assumed
Reference: input RNA pool
Direction: higher = stronger binding
All sequences stand within: GGGAGUUCUACAGUCCGACGAUC … CAACAGAGGAUUGAGCAUCA
Residues (chain): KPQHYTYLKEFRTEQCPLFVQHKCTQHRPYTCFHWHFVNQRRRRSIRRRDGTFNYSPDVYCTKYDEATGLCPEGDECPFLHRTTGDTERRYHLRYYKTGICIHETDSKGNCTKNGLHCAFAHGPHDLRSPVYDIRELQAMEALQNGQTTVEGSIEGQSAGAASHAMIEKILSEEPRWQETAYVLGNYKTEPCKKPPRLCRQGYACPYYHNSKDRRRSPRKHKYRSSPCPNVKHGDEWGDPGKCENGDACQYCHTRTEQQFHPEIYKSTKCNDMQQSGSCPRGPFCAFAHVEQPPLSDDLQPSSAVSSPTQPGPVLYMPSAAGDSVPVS
| Sequence | bound/input enrichment [ratio] |
| --- | --- |
| AGGAGGAGGUUAAAGGGUGAGAGUGGGGUGGAAGACUGUGUCAUGGCCCUAGAAACCCUGUUCAGUGUCCUGCUUUCUCUGUGCAGACUGAUGGCCCCUUACACGCCUUUUCUCACUGAG | 0.0508 |
| UCUUAACGUCCAUUUAAAACUUAUUUUUAUAGCUAGAUAAAUAUUGUUAGUCUUAGACAAUAGCUCACAUUUUUUGAAAAGCAUGCUCUCCCUGUCCAUUUGUCUUAUAACAUGACCCAG | 105 |
| GCAGGAUCUUCUAAGUACCAGUGGGACAUUAUGAAAUCCCUUGGCCUCUCUGAUGACGACAUAGUGAAGUUUUCUGAAGCAGAACAUUGGCUUGAUUAUUUCCCACCACUGGCCGUUCAG | 0.262 |
| UCUGGUCACACUCGUGUGUAUGGUGUUUGCUUUGUGGAUACUUCACUGGGCAAGUUUUUCAUCGGCCAGUUUUCGGAUGACCGCCACUGUUCCAGAUUUAGGACUCUAGUGGCUCACUAU | 0.147 |
| GUGACUGGUGUUAAGAUUUCCCCUCAGCAAAGAAGUGCAGUAGUCACCAUAAUUCCAUCUGUGGUGAGUGCCAGUCAGAUUGUGGAGCUGGUCCCAGAACUCAGUUUAGAUACUGGGACU | 0.42 |
| UGACAAGGGCACUGCAGAGCCAUGCCUUUCCUUGACAUACAGAAAAAGCUGGGCAUCAGCCUGGACCGGCACUUUAUAAUCCAGAGUGGUGAACAGCCCUAUAAGAACGCCGCUCGGUGC | 0.105 |
| GAAACAUUUAAAUUUAAAGAAGCUGUUGUUCUAGGAAGUACGGACUUCCUAGAAGAUGAUAUAGAGAAAAUUGUAGAAGAACUGGGAAAAGAGUAUAAGGGCAACGCCUACCAUCUGAUG | 1.3 |
| CGCUGGCCCAAGCUGAUGGACUCUGAUCUUGAUCUCUUCUCAGGCACGUGUGCCUUCUCUUAGUCCCUGUUUUCGGGAUGUUAUGAAUCUCAGUACUGUUUGACAGAAGCACCAGCUUUG | 0.177 |
| UCAACAGACAACAUCAAAUACCAGCCUAAAGGGGGGCAGGUACAAAUUGUUACUAAGAAAAUAGACCUAAGCCAUGUGACAUCCAAAUGUGGCUCUCUAAAGAACAUCCGCCACAGGCCA | 0.619 |
| AGAGAUAAAGCAUCUAGGAACAUGCGAGGCUCCCGGAUGAAUGGGUUGCCUAGCCCCACUCACAGCGCCCACUGUAGCUUCUACAGAACCAGAACCUUGCAGGCACUGAGUAAUGAGAAG | 0.114 |
| ACUCUUGACUCUUUCCAUCCUCUUCCUUUCCCUCUUGAUAUUCAAGGCCAUGAAUCCCAAAAUAACAGUCUUAGUGGCUAGCACCCAAACAGAGGUGGGUGCCAUCCAAACUGACAACUC | 0.534 |

A few entries again (block 3):
| Sequence | RBNS enrichment (R) |
| --- | --- |
| UGUAUUAUUUAUUCAUUCACUGUUUUCUAGUGUUUCUGUGUUUAUUACUGUUCAGCAUCAUCUUGGUUAUAUACUGAAAAUCAAACACUUUACUACAGUUGUGAAUUAGU | 0.381 |
| ACACUACUGCACCGCACCGCACCCAGAAAGAACUUUCUCCCCAGCGGUGACGACUGCUCCAUGGGGAAGCUAAAAUAUCCUCGCCAGUUCCGGAGCACCCUUGUGAAGAA | 1.95 |
| UUUUUUGCUCCCAACUUCCUGACACUAGAUGAGUCAGCAGACAUGAGUCCUGACUUCCAAGAGAUUUUAGAAUCUAAGCUGGAUAGUACAGACAGGUAUAAAAGAUGGAU | 0.319 |
| GUUUUUAAGUGUUUGCCUGUGGCUACUUCCGUUCUAUAGCUCAAGAAUAUGCCAUUACAUCAUAGUCAAGGGGUUGCUAUGAGAACUGUAGUAGAGAAUACCACUGUGAG | 2.92 |
| UUAUAUGAAGUUGCAUUAUUGUGGACUUGGCUGUCUUGUGAUGAAUUUUUUUCAUAUGUAUUCUGUGCCAUACUAUUGUUAAAAUGAACUGUUGCUAUUGUGAGAUGGAU | 1.18 |
| CUCCCUCUCAGGAAGCCCAGUUUCAUCCUUAGUACCCCCCCUCGUGCCCGCUGUCGGCUGGUUAUAGCACUUCCACUGCUACUGUCAGAUAGGAAGUGAUCGAAGCAGGG | 0.339 |
